Results collected from several papers.
Lines come from different studies, so protocols differ.
Cell line: MDA-MB-231

C=C1C(=O)OC2CC3=C[C@@H](C/C(C)=C/C(OC(=O)Cc4cccc5ccccc45)[C@H]12)OC3=O (stereo partly shown)
G0/G1 phase cells (flow cytometry; 3.8 µM, 48 h): 39%

N=C(N)NCCC[C@H](NC(=O)[C@H](Cc1c[nH]c2ccccc12)NC(=O)[C@H](CCC(N)=O)NC(=O)[C@H](Cc1c[nH]c2ccccc12)NC(=O)[C@H](CCCNC(=N)N)NC(=O)[C@H](Cc1c[nH]c2ccccc12)NC(=O)[C@H](CCC(N)=O)NC(=O)[C@H](Cc1c[nH]c2ccccc12)NC(=O)[C@@H](N)CCCNC(=N)N)C(N)=O
selectivity ratio (relative to: fibroblast IC50 over MDA-MB-231 IC50): > 1.3

CC1(C)C(=CC=C2CCCC(C=CC3=[N+](CCCCCC(=O)O)c4ccccc4C3(C)C)=C2c2ccccc2)N(CCCCCC(=O)O)c2ccccc21
Pearson colocalization coefficient (confocal microscopy; 10 µM, together with: BSA-FITC about 1 equiv): 0.63

O=C(Cc1ccccc1)Nc1nc2ccccc2n1Cc1ccccc1
mRNA level (qPCR, item: HIF1A; 10 µM, 8 h, normoxia): decreased

CCN(CC)C1=[S+][Au-2]2([S]1)[c]1ccccc1-c1cccc[n+]12.F[P-](F)(F)(F)(F)F (stereo not shown)
mitochondrial gold accumulation (ICP-MS; 10 µM, 18 h): 11 nmol/20 million cells

C=CC(OC(C)=O)c1cc(OC)c(OC(C)=O)c(OC)c1 (stereo not shown)
phospho-FAK reduction (Western blot, item: phospho-FAK/FAK; concentration not given, 24 h): 70 to 94%

C/C(=N\N(c1ccccc1)c1ccccc1)c1ccc(O)cc1
S phase cells (flow cytometry PI; 50 µM, 48 h): 25.8%

N=C(N)NCCC[C@H](NC(=O)[C@H](Cc1c[nH]c2ccccc12)NC(=O)[C@H](CCC(N)=O)NC(=O)[C@H](Cc1c[nH]c2ccccc12)NC(=O)[C@@H](N)CCCNC(=N)N)C(=O)N[C@@H](Cc1c[nH]c2ccccc12)C(=O)N[C@@H](CCC(N)=O)C(=O)N[C@@H](Cc1c[nH]c2ccccc12)C(N)=O
selectivity ratio (relative to: erythrocyte IC50 over MDA-MB-231 IC50): > 1

CN[C@@H](C)C(=O)N[C@H]1CN(C(=O)Cc2ccccc2)CC[C@H]2CC[C@@H](C(=O)NCc3ccc(C(F)(F)F)cc3)N2C1=O
onset concentration (cIAP1 degradation, western blot, item: cIAP1; 24 h): > 100 nM

CC(=O)OCC1(O)C(Nc2cccc(C(C)=O)c2)C(N)C(NC(=O)N(C)C)(C(C)OC(C)=O)C1(C)O (stereo not shown)
EC50 (cell growth or viability): 0.458 µM

OC(c1cccc(Cl)c1)c1c[nH]c2ncc(C(F)(F)F)cc12 (stereo not shown)
inhibition (cell growth or viability; 10 µM, 72 h): 10%

CCCCCCCCCCCCCCCOC(=O)/C=C/c1cccc(O)c1
early apoptotic cells (AO-PI flow cytometry; IC50, 24 h): 23.9%

C=CC(OC(C)=O)c1ccc(OC(C)=O)c(OC)c1 (stereo not shown)
Bcl-xL protein decrease (Western blot; IC50, 24 h; relative to: untreated): 30 to 50%

CN[C@@H](C)C(=O)N[C@H]1CCCCNC(=O)[C@H](Cc2ccccc2)NC(=O)[C@@H]2CCCN2C(=O)[C@@H](NC(=O)[C@H](C)NC)CCCCNC(=O)[C@H](Cc2ccccc2)NC(=O)[C@@H]2CCCN2C1=O
caspase-3/7 activation (fluorometric; concentration not given, together with: Z-DEVD-FMK): inhibited

C=C[C@H](OC(C)=O)c1ccc(OC(C)=O)cc1
phospho-FAK reduction (Western blot, item: phospho-FAK/FAK; concentration not given, 24 h): 70 to 94%

COC(=O)C1CCCN1C(=O)C(Cc1ccccc1)N(C)C(=O)CC(O)C(CC(C)C)NC(=O)C(CC(C)C)N(C)C(=O)C(CC(C)C)NC(=O)C(O)C(C)C (stereo not shown)
sensitivity to TRAIL (MTT; 40 and 13 µM, 48 h, together with: TRAIL): increased

CCC(=C(c1ccc(Cl)cc1)c1ccc(OCCCN(C)C)cc1)c1ccc(OC)cc1
GI50: 1.3 µM

OC(c1cccc(C(F)(F)F)c1)c1c[nH]c2ncc(C(F)(F)F)cc12 (stereo not shown)
inhibition (cell growth or viability; 10 µM, 72 h): 23%

CCC(C(=O)O)C1CCC(C)C(C(C)C(O)C(C)C(=O)C(CC)C2OC3(C=CC(=O)C4(CCC(C)(C5CCC(O)(CC)C(C)O5)O4)O3)C(C)CC2C)O1 (stereo not shown)
combination index (MTT; together with: benzhydroxamic acid 71.0 µM): 1.5

CCCCCCCCCCCCCCCOC(=O)/C=C/c1cc(O)c(O)c(OC)c1
cells in G1 phase (propidium iodide flow cytometry; concentration not given, 24 h): 54.2%

Cc1ccc(-c2c(/C=C(\C#N)C(=O)NC(C)C)n(CCCO)c3ncnc(N)c23)cc1
EC50 (RSK2 Ser386 autophosphorylation, inhibitor; 2 h): < 0.01 µM

Cc1ccc(C(C)C)cc1.O=C(N=P(c1ccccc1)(c1ccccc1)c1ccccc1)c1ccccn1.[Cl-].[Cl][Ru+]
IC20 (cell growth or viability, resazurin): 2.5 µM

FC(F)(F)c1cnc2[nH]cc(Cc3ccc(OCc4ccccc4)cc3)c2c1
inhibition (cell growth or viability; 10 µM, 72 h): 25%

CC1OC2OC3C4=C(OC3(C)C12O)C(=O)c1c(O)cccc1C4=O (stereo not shown)
EC50 (cell growth or viability, MTT; 48 h): 1.25 mg/L

CCCCCCCCCCCCCC(=O)N1CCC[C@H]1C(=O)N[C@@H](CO)C(=O)N[C@@H](CCC(N)=O)C(=O)N[C@@H](CO)C(=O)N[C@@H](CO)C(=O)N[C@@H](CO)C(=O)N[C@@H](CCC(=O)O)C(=O)N[C@@H](C)C(=O)O
apoptotic cells (annexin V/PI flow cytometry; 50 µM, 48 h): 30%

OC(c1ccc(C(F)(F)F)cc1)c1c[nH]c2ncc(C(F)(F)F)cc12 (stereo not shown)
inhibition (cell growth or viability; 10 µM, 72 h): 18%

CC(=O)O[C@H]1C(=O)[C@]2(C)[C@@H](OC(=O)[C@H](N)CSC3CC(=O)N(CCC(=O)Nc4ccc(-c5ccc(/N=N/c6ccc7c(S(=O)(=O)O)cc(S(=O)(=O)O)c(N)c7c6O)c(C)c5)cc4C)C3=O)C[C@H]3OC[C@@]3(OC(C)=O)[C@H]2[C@H](OC(=O)c2ccccc2)[C@]2(O)C[C@H](OC(=O)[C@H](O)[C@@H](NC(=O)c3ccccc3)c3ccccc3)C(C)=C1C2(C)C (stereo partly shown)
cellular uptake (flow cytometry; concentration not given, 4 h): 35.6%

CCCCCCCCCCCCCC(=O)N1CCC[C@H]1C(=O)N[C@@H](CO)C(=O)N[C@@H](CCC(N)=O)C(=O)N[C@@H](CO)C(=O)N[C@@H](CCCCNC(=O)c1ccc(Br)cc1)C(=O)N[C@@H](CO)C(=O)N[C@@H](CCCCNC(=O)c1ccc(Br)cc1)C(=O)N[C@@H](C)C(=O)O
apoptotic cells (annexin V/PI flow cytometry; 50 µM, 48 h): 54%

CN[C@@H](C)C(=O)N[C@H]1CN(C(=O)Cc2ccccc2)CC[C@H]2CC[C@@H](C(=O)NCc3ccc(Br)cc3)N2C1=O
minimum effective concentration (apoptosis, annexin V/PI flow cytometry; 24 h): 100 to 300 nM

CCCCCCCCC/C=C/C=C/C(=O)N[C@H](C(=O)N[C@H]1C[C@@H](O)CCNC(=O)/C=C/[C@H](C)NC1=O)[C@@H](C)O
antiproliferative concentration (trypan blue cell counting; 2 days): 0.25 µM

COc1ccc(C=CC(=O)c2cccc(O)c2)cc1
CDK2 protein level (Western blot; concentration not given, 48 h, together with: estradiol 1 nM): decreased

CC(C)C1=C(O)C(=O)C2=C(C1=O)[C@H](OC=O)[C@@H](O)[C@H]1C(C)(C)CCC[C@]21C
GI50 (cell growth or viability, SRB; 48 h): > 100 µM

CC1(C)C(=CC=C2C[N+](C)(C)CC(C=CC3=[N+](CCCCCC(=O)O)c4ccccc4C3(C)C)=C2Cl)N(CCCCCC(=O)O)c2ccccc21
cellular uptake (serum-free medium, together with: BSP 250 µM): increased

OC(c1ccc(OCc2ccccc2)cc1)c1c[nH]c2ncc(C(F)(F)F)cc12 (stereo not shown)
inhibition (cell growth or viability; 10 µM, 72 h): 28%

[Ru+2].c1ccc(-c2ccc3c(n2)c2ncccc2c2nc4cc5ccccc5cc4nc32)nc1.c1ccc(-c2ccc3c(n2)c2ncccc2c2nc4cc5ccccc5cc4nc32)nc1
EC50 (cell growth or viability, MTT; dark): > 25 µM

CC(=O)c1cccc(NC2C(NC(=O)OCc3ccccc3)C(NC(=O)N(C)C)(C(C)O)C(C)(O)C2(O)COC(=O)c2c(C)cccc2O)c1 (stereo not shown)
EC50 (cell growth or viability): 10.4 µM

FC1(F)Oc2ccc(Cc3c[nH]c4ncc(C(F)(F)F)cc34)cc2O1
inhibition (cell growth or viability; 10 µM, 72 h): 20%

CC(=O)N[C@@H](Cc1ccc(O)cc1)CN(CC(=O)N[C@@H](CCCCN)CN(CC(=O)N[C@@H](Cc1ccccc1)CN(CC(=O)N[C@H]1CCCCNc2c(F)c(F)c(c(F)c2F)S(=O)(=O)c2c(F)c(F)c(c(F)c2F)NCCCC[C@@H](CN(CC(=O)N[C@@H](C)CN(CC(N)=O)S(C)(=O)=O)S(C)(=O)=O)NC(=O)CN(S(=O)(=O)CC(C)C)C[C@H](Cc2ccccc2)NC(=O)CN(S(=O)(=O)CCN)C1)S(=O)(=O)c1ccc(Cl)cc1)S(=O)(=O)CCN)S(C)(=O)=O
GI50 (cell growth or viability, CCK-8; 72 h): 14.5 µM

N=C(N)NCCC[C@H](NC(=O)[C@H](Cc1c[nH]c2ccccc12)NC(=O)[C@H](CCC(N)=O)NC(=O)[C@@H](N)Cc1c[nH]c2ccccc12)C(=O)N[C@@H](Cc1c[nH]c2ccccc12)C(=O)N[C@@H](CCC(N)=O)C(=O)N[C@@H](Cc1c[nH]c2ccccc12)C(N)=O
selectivity ratio (relative to: erythrocyte IC50 over MDA-MB-231 IC50): > 1

COc1cc(OC)cc(C(O)c2c[nH]c3ncc(C(F)(F)F)cc23)c1 (stereo not shown)
inhibition (cell growth or viability; 10 µM, 72 h): 13%

Repeated from above:
COc1ccc(C=CC(=O)c2cccc(O)c2)cc1
CDK2 protein level (Western blot; concentration not given, 48 h, together with: estradiol 1 nM): decreased

CC(C)C1=C(O)C(=O)C2=C(C1=O)[C@H](OC=O)[C@@H](O)[C@H]1C(C)(C)CCC[C@]21C
GI50 (cell growth or viability, SRB; 48 h): > 100 µM

CC1(C)C(=CC=C2C[N+](C)(C)CC(C=CC3=[N+](CCCCCC(=O)O)c4ccccc4C3(C)C)=C2Cl)N(CCCCCC(=O)O)c2ccccc21
cellular uptake (serum-free medium, together with: BSP 250 µM): increased

OC(c1ccc(OCc2ccccc2)cc1)c1c[nH]c2ncc(C(F)(F)F)cc12 (stereo not shown)
inhibition (cell growth or viability; 10 µM, 72 h): 28%

[Ru+2].c1ccc(-c2ccc3c(n2)c2ncccc2c2nc4cc5ccccc5cc4nc32)nc1.c1ccc(-c2ccc3c(n2)c2ncccc2c2nc4cc5ccccc5cc4nc32)nc1
EC50 (cell growth or viability, MTT; dark): > 25 µM
